Measured values of several laboratories.
A part holds a random share of what one study measured.

Series 1 — method: universal PBM; molecule type: double-stranded DNA, one strand shown; sample: in vitro; tested at: not given; reading: higher = stronger binding
Target: Sal-like protein 4, full length isoform B (SALL4, Homo sapiens, UniProt Q9UJQ4-2, residues 1-616)
Setting: 8-mer, flanks averaged, mean of replicates
Sequence | E-score
GCAGCTGA | -0.0858
GGCATAAA | 0.182
GTGCGTTA | 0.2
ATTAGGGA | 0.195
GACTCCAC | -0.291
GTCTCCAC | -0.269
ACCGCCAG | -0.27
AAGTGGAG | 0.129
GGGTGTAA | -0.0055
CAGCGAGG | -0.216
CAAGCACG | -0.157
CACAAACA | 0.19
ATTACTCC | 0.074
AGCGTCAG | -0.0206
CTGTTCTA | 0.106
CAGACCCC | -0.274
CCCAAAGA | -0.00794
CAGGTGGG | -0.243
GGTCTCGA | -0.142
CGGAGATA | 0.0203
AAGTCTTC | 0.0257
GCGACGCC | -0.288
GGACAGAC | -0.235
GCTATTAA | 0.177
CGTACGGC | -0.0859

Series 2 — method: RNA Bind-n-Seq; molecule type: RNA; sample: in vitro; tested at: 365 nM; relative to: no-protein control; reading: higher = stronger binding
Target: RNA binding protein fox-1 homolog 2, RRM domain, GST-SBP tag (RBFOX2, Homo sapiens, UniProt O43251-10, residues 100-194)
Setting: natural RNA segment, single round, ends assumed
Constant ends, left off below: GGGAGUUCUACAGUCCGACGAUC … UGGAAUUCUCGGGUGCCAA
Construct (chain): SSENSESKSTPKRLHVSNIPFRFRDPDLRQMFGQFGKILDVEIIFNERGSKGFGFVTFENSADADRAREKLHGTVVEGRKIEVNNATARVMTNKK
Sequence | RBNS enrichment (R)
UCCCUCUGUCUGUUUAUGCCUGGUGUGAGUUCCAUCGGGUGUCUUUAAAUAGUUGCAGAAGGGAUACGUCAUCUGUUAAUGCUUUUUGUGAAGUGAGUUAAUGAGCCUUC | 0.817
CUAGAUUAUCUUAACAAAUAAUACUCAGCUAAAUAUUUGCAUUUAGGAAUACUCCUAAAACAGAUAUUGCCAACUAGAUACACUGCCUCAAUCUUGACCAGACAAGAGAA | 0.381
ACAUUUUCUAGAUUUUUUUGUUGUUAUAUAUUGAGAUAUAAAAUAUGGCUAUGUUGCUUAAGAUUCUCAGGGAUAGACUUAUUUUUGUUAACUUCAUUCUUUCCUGCUGU | 0.888
GAUGCUCAGCAGGGAGGAGGGAAAGCCUGUAUAGCUAGCCUGACAUUUUGUUUCUUGUACAAUAUCUCAUGUGACCCAAACUUGAGACUCCAAACAGUACCUUUGCUUUG | 0.595
AACUUUCUGGGGUUUGACUGUUACACUAGACAUGGAUUUCUAAGCUUUAAGUGUGGUUGGUUUAGGAGAGUUUUCCUUGGGAGAGCUAGCCCUGAGGUAGUCAGGGCUAG | 0.674
UUCCUUUUUAUAUAAAAGUAUAUUGUUUAAAACAGUAGCUAUAGCCAUUAACCAAAGGACAGAUGUGUAUAUGUGUGUGUGUGUAUGUGUGUGUAUGUAUAUGAUACAUA | 0.998
GCGGGAGCAAGCCCCAGGUUGUGACAGGUGCAGGUAGACAACGCCCAUAAACAGAGAUGGUCCUGAACUCUGGAGAGAUCCUUCCCUGAUCCUUUCGGACGACUACUUGG | 0.335
UACUAUAUUAAGCUUGAAGAAGCAGAAGAUCCCUGUUAAUGUGUAUGGCCCAGGCCAAGAGCUGUCAAAUGAAAAACUUUGUGCUGAAGCAGGUUUUUAGUAUGUAUAUC | 0.556
AAAAAUUCAAUUAUCCGAUUGUAUUUAACAUCUUUAAGAGCAUGAUCAUAAAGAGCUAUUUUUGACACCCCCCCCCCACUUUUUUAACAUUUAGAGUUAGUAAGGGUUUU | 6.79
CAGGCUGCUCCAGGGGCCUCCUGCGCCCUCACCUGCCACAGAGCAACCCAGGUUAAAUACAGCCCAUGCACAAAGCCACAGGCCAAAGCCUAUGGAAUUGUUUUUAAUCA | 0.299
AGACUGGUGACAGAGUUCCUGUCUAACUGUCCUUUAUUUGAAAUAAACUGAGCUGAGUUGGUCUCUAUCUUCCUUGUAGCUGCCUUGUUCACUGUGUUUUGACUCUCACU | 0.318
ACACAUGACCUUGGAGCCUCUUGGCCUUCAGAGCAGAGGCAAACCCACCACAGGGCAGCUGCGUUUUAGGAAGAGCAAAUGAAACUCCACACCAUUCUUCUAGAUCUCUG | 0.301

Series 3 — method: protein-binding microarray; molecule type: double-stranded DNA, one strand shown; sample: in vitro; tested at: not given; reading: higher = stronger binding
Target: Hepatocyte nuclear factor 3-beta, forkhead domain (FOXA2, Homo sapiens, UniProt Q9Y261, residues 142-269)
Setting: k-mer, scored over probes, only values ≥0.25
Residues (chain): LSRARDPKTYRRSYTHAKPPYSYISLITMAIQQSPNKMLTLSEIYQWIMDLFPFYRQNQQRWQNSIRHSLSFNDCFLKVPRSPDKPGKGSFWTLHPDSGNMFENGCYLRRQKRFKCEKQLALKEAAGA
Sequence | E-score
ACTTACAA | 0.339
CATGGTCA | 0.308
TCTTATCA | 0.282
ACATCACA | 0.265
GACAATAC | 0.317
ACGTATAT | 0.307
ATTATGTC | 0.266
TAACTTCA | 0.321
GTTGTACA | 0.284
TCAAACCA | 0.267
CTATTTGA | 0.29
ATATTTAA | 0.383
CATTAACA | 0.267
CAATACTC | 0.312
AAGTAATT | 0.301
GGTATACA | 0.316
GTTGAATA | 0.265
TATGTTGA | 0.331
CACTAACA | 0.271
GGTAAATA | 0.38
AGATCATA | 0.287
ATAACCAG | 0.269
ACACGTAT | 0.258
ACATATGA | 0.254
ACATAGGT | 0.279

Series 4 — method: aptamer microarray, sandwich; molecule type: DNA with 2'F-ANA; sample: in vitro; tested at: 200 nM; added: Cy3 exosite-II aptamer, 400 nM; reading: higher = stronger binding; sequence: GGTTGGTGTGGTTGG
Target: Prothrombin, mature alpha-thrombin (F2, Homo sapiens, UniProt P00734)
Setting: whole 15-mer aptamer, many near background
Modification | mean fluorescence intensity
2'F-ANA at 4 6 7 11 13 14 | 78.9 a.u.
2'F-ANA at 2 5 8 9 10 12 15 | 50.7 a.u.
2'F-ANA at 2 3 5 6 7 9 11 12 15 | 121 a.u.
2'F-ANA at 1 3 5 6 7 8 9 12 14 | 52.9 a.u.
2'F-ANA at 1 3 4 7 9 11 12 13 14 15 | 80.9 a.u.
2'F-ANA at 1 3 4 5 6 9 10 11 12 13 14 15 | 47.8 a.u.
2'F-ANA at 4 6 7 9 11 13 14 15 | 67.1 a.u.
2'F-ANA at 1 6 8 11 13 14 15 | 61.4 a.u.
2'F-ANA at 3 5 10 11 12 14 | 53.5 a.u.
2'F-ANA at 1 2 5 6 7 9 10 12 13 | 57 a.u.
2'F-ANA at 1 6 7 9 10 14 | 70.2 a.u.
2'F-ANA at 1 4 5 9 10 11 | 48.7 a.u.
2'F-ANA at 1 2 3 5 8 9 11 12 13 | 79.7 a.u.
2'F-ANA at 1 3 4 5 9 11 13 14 | 48.2 a.u.
2'F-ANA at 1 3 5 8 12 14 15 | 45.5 a.u.
2'F-ANA at 1 3 4 6 7 8 11 13 15 | 151 a.u.
2'F-ANA at 4 5 7 8 11 | 62.9 a.u.
2'F-ANA at 5 7 9 14 15 | 68.4 a.u.
2'F-ANA at 1 2 6 7 8 9 11 12 13 15 | 201 a.u.
2'F-ANA at 1 2 3 7 9 12 13 | 313 a.u.
2'F-ANA at 1 2 3 4 6 8 10 12 13 | 58.4 a.u.
2'F-ANA at 2 3 5 6 7 8 10 11 13 14 15 | 51.8 a.u.
2'F-ANA at 1 5 7 9 10 12 13 15 | 49.9 a.u.
2'F-ANA at 7 10 11 12 | 233 a.u.

Series 5 — method: RNA Bind-n-Seq; molecule type: RNA; sample: in vitro; tested at: 1 µM; setting: whole 134-nt RNA, ends assumed; added: 150 mM KCl; relative to: input library; reading: higher = stronger binding
Target: Ras GTPase-activating protein-binding protein 1, C-terminal RGG region (G3BP1, Homo sapiens, UniProt Q13283)
Sequence of UniProt Q13283 (whole entry, looked up): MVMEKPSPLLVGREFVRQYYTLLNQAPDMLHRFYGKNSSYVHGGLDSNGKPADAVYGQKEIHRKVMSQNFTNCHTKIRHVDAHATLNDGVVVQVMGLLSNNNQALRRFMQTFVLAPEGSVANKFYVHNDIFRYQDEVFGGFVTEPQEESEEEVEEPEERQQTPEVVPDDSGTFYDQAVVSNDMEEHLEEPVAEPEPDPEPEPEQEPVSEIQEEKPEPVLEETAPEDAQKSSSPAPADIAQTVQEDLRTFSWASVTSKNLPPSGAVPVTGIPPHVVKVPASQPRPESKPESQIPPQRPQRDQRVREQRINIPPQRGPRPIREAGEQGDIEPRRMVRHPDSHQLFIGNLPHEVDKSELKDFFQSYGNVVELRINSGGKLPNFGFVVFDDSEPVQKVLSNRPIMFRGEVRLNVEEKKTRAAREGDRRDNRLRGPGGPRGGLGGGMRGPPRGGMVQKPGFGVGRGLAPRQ
Constant ends, left off below: GGGAGUUCUACAGUCCGACGAUC … UGGAAUUCUCGGGUGUCAAGG
Sequence | log2 enrichment
CAAGUCCUGUGCUACACAUCGUAUGUACCGAAUCGGUUUUUGGAGGUUUUUUUGGAAAGUAUUAUGUUACGCCGUUCGGAUCUGCACUUC | -1.53
UAACUUUAGAGGAGGAUCUGAUGGAUAUGGCAGUGUACGUGGAUUUGGGGAUGGCUAUAAUGGGUAUGGAGGAGGACCUGGAGGUGGCAA | -1.19
CACAGACUACACGCACCCACACAGACACAGAGGGAAGGGGUUGGGAUGGGGACAGGGUGCACAGCAGGGCGGGGUAGGACCCCAGCCCCU | -0.309
CAAGUCCUGUGCUACACAUCGUAUGUACCGAAUCGGGGAGGGGAGGGGUUUGGGGAAAGUAUUAUGUUACGCCGUUCGGAUCUGCACUUC | 2.74
GUCCUGUGCUACACAUCGUAUGUACCGAAUCGGGAAAGGGAAAAAAAGGGAAAAAGGGAAAGUAUUAUGUUACGCCGUUCGGAUCUGCAC | -0.401
CAAGUCCUGUGCUACACAUCGUAUGUACCGAAUCGGGGUUUUGGUUUUGGUUUUGGAAAGUAUUAUGUUACGCCGUUCGGAUCUGCACUU | -1.65
CAAGUCCUGUGCUACACAUCGUAUGUACCGAAUCGGGGAAAAGGAAAAGGAAAAGGAAAGUAUUAUGUUACGCCGUUCGGAUCUGCACUU | -2.01
UCCUGUGCUACACAUCGUAUGUACCGAAUCGGGAAAAAGGGUUUUUGGGUUUUUUUGGGAAAGUAUUAUGUUACGCCGUUCGGAUCUGCA | -0.657
UCAAGUCCUGUGCUACACAUCGUAUGUACCGAAUCGGGAGGGUUUUUGGGUGGGAAAGUAUUAUGUUACGCCGUUCGGAUCUGCACUUCC | 1.14
UCAAGUCCUGUGCUACACAUCGUAUGUACCGAAUCGGGUGGGAAAAAGGGUGGGAAAGUAUUAUGUUACGCCGUUCGGAUCUGCACUUCC | 1.46
AGUCCUGUGCUACACAUCGUAUGUACCGAAUCGGGGCCCCCGGGCCCCCGGCCCCCGGAAAGUAUUAUGUUACGCCGUUCGGAUCUGCAC | -1.85
UCCUGUGCUACACAUCGUAUGUACCGAAUCGGGGCCCCCCGGGCCCCCCGGCCCCCCGGAAAGUAUUAUGUUACGCCGUUCGGAUCUGCA | -0.975
UUCCUCAAGUCCUGUGCUACACAUCGUAUGUACCGAAUCGGAGGGAGGAGGAAAGUAUUAUGUUACGCCGUUCGGAUCUGCACUUCCAGC | -1.26
UGUGCUACACAUCGUAUGUACCGAAUCGGGGUUUUUUUGGGUUUUUUUGGGGUUUUUUUGGGGAAAGUAUUAUGUUACGCCGUUCGGAUC | -0.712

Series 6 — method: protein binding microarray; molecule type: double-stranded DNA, one strand shown; sample: in vitro; tested at: not given; relative to: not given; reading: higher = stronger binding
Target: Histone acetyltransferase KAT6A, both winged helices, GST fusion (KAT6A, Homo sapiens, UniProt Q92794, residues 1-181)
Setting: 8-mer, flanks averaged, mean of 2 arrays, mostly near background
Construct (chain): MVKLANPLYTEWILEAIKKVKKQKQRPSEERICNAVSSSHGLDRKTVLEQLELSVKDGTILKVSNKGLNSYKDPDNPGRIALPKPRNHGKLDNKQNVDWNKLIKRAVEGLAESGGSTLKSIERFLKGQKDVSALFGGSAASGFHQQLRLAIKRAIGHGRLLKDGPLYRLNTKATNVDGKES
Sequence | E-score
ACCTGCTG | -0.147
ATATAACG | -0.0341
ACAGGGCG | 0.19
CTGCTCTC | -0.167
GAACTGGA | 0.0387
ACCGTCGC | 0.322
AGGGAAGG | -0.219
AAGAAGAA | -0.0292
GAAGCTAA | 0.0316
CAAATAGG | -0.125
AAGTGGTA | -0.223
AGCGAAGC | -0.0202
AAACACGA | -0.0962
ATAATGTC | 0.0804
CTTTGGCA | -0.13
GTTGCCAA | -0.237
AATCCAGC | -0.0514
ACGGTGGG | 0.0619
CACTTTTC | -0.115
GCAATAGC | -0.0478
CGACGGCC | 0.322

Excerpt of the above (series 3):
Sequence | E-score
CATGGTCA | 0.308
TCTTATCA | 0.282
ACATCACA | 0.265
GACAATAC | 0.317
ACGTATAT | 0.307
ATTATGTC | 0.266
TAACTTCA | 0.321
GTTGTACA | 0.284
TCAAACCA | 0.267
CTATTTGA | 0.29
ATATTTAA | 0.383
CATTAACA | 0.267
CAATACTC | 0.312
AAGTAATT | 0.301
GGTATACA | 0.316
GTTGAATA | 0.265
TATGTTGA | 0.331
